# Measured values of several laboratories.
# Each line is one published result; not all experiments were run side by side.
# KAT6A winged helix 2, GST fusion: Histone acetyltransferase KAT6A, winged helix 2, GST fusion (KAT6A, Homo sapiens, UniProt Q92794, residues 85-181)
# ETS1 Y397A: Protein C-ets-1 (ETS1, Homo sapiens, UniProt P14921, residues 1-441, Y397A, full length assumed)
# Chain of UniProt P14921 (whole entry, unmodified, looked up): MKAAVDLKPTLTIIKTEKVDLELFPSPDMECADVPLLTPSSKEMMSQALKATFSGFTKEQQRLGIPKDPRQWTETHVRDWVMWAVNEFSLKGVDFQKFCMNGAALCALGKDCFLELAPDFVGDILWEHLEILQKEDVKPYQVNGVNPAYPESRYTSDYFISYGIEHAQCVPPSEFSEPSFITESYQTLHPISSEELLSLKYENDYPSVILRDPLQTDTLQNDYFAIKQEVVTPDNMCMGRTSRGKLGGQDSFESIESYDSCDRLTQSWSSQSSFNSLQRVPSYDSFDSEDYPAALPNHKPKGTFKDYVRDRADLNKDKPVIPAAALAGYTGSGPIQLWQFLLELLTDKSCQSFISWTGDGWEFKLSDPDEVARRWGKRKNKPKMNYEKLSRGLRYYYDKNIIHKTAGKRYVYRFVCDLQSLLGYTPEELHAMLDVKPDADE
Substance,target,assay,test system,setting,scale,quantity,result
GAGCTATC,"KAT6A winged helix 2, GST fusion",protein binding microarray,"double-stranded DNA, one strand shown, in vitro","not given, 8-mer, flanks averaged, mean of 2 arrays, mostly near background","reference: not given, higher = stronger binding",E-score,0.0103
GCCTAGCACGACGAGCTGAGTATCGAGACGTGCTAGGTCTTGATTCGCTTGACGCTGCTG,"Interferon regulatory factor 5, full length, phosphomimetic (IRF5, Homo sapiens, UniProt Q13568-2, residues 1-514, K96S/S451D/S453D/S456D/S462D)",protein-binding microarray,"double-stranded DNA, one strand shown, in vitro","250 nM, 60-bp whole probe, together with: salmon DNA 0.4 mg/ml","reference: random background probes, higher = stronger binding",log fluorescence,1.73 z-score
GCGGAACC,"KAT6A winged helix 2, GST fusion",protein binding microarray,"double-stranded DNA, one strand shown, in vitro","not given, 8-mer, flanks averaged, mean of 2 arrays, mostly near background","reference: not given, higher = stronger binding",E-score,0.0714
GCAATTGC,ETS1 Y397A,protein-binding microarray,"double-stranded DNA, one strand shown, in vitro","not given, k-mer, scored over probes, only values ≥0.25",higher = stronger binding,E-score,0.35
GCCTAGCACTCATATTTGCAACATCCCACTGTGCTAGTCTTGATTCGCTTGACGCTGCTG,"Interferon regulatory factor 5, full length, phosphomimetic (IRF5, Homo sapiens, UniProt Q13568-2, residues 1-514, S451D/S453D/S456D/S462D)",protein-binding microarray,"double-stranded DNA, one strand shown, in vitro","940 nM top, 60-bp whole probe, together with: salmon DNA 0.4 mg/ml","reference: random background probes, higher = stronger binding",fitted relative affinity,0.616 z-score
"PhoQ, residues 284 288 289 292 302 303 NLAAMI","PhoP, residues 12 14 15 18 19 NQCAL (Escherichia coli, UniProt P23836)","Sort-seq, item: YFP reporter",E. coli,"PhoQ-PhoP variant library, together with: 10 µM Mg2+","reference: high Mg2+ state, higher = stronger signaling",fold induction,13.3
CTTCCGGC,ETS1 Y397A,protein-binding microarray,"double-stranded DNA, one strand shown, in vitro","not given, k-mer, scored over probes, only values ≥0.25",higher = stronger binding,E-score,0.455
